Published values pooled from the literature.
Each numbered part is a random draw from the data of one study; scales do not carry over between parts.
Sequence of UniProt P42336 (whole entry, unmodified, looked up): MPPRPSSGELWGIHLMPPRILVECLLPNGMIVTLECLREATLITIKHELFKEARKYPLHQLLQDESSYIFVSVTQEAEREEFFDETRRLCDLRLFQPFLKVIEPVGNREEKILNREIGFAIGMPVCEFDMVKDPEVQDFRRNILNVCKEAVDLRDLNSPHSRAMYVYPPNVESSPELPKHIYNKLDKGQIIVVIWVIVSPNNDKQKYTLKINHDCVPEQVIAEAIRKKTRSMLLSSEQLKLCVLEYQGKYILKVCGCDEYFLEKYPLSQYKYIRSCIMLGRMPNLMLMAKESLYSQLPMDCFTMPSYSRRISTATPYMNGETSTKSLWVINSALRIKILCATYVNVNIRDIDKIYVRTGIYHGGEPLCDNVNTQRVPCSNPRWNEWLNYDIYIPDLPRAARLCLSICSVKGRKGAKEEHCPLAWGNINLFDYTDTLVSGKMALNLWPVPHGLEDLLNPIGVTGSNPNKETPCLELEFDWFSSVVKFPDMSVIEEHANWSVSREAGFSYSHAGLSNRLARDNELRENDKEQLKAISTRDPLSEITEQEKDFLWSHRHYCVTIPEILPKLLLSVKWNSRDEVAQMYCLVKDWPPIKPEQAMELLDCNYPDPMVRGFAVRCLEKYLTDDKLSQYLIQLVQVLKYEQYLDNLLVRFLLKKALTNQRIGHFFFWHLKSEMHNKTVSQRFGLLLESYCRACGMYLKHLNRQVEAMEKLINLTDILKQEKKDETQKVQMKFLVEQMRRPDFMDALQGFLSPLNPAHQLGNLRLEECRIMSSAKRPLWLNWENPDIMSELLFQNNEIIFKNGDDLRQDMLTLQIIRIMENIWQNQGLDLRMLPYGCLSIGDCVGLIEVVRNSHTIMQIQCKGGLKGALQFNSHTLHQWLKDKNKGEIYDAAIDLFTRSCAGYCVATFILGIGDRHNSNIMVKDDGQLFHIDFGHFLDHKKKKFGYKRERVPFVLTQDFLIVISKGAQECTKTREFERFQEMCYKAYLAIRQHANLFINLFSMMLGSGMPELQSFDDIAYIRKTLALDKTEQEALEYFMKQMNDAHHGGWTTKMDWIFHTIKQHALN
Sequence of UniProt P11802 (whole entry, looked up): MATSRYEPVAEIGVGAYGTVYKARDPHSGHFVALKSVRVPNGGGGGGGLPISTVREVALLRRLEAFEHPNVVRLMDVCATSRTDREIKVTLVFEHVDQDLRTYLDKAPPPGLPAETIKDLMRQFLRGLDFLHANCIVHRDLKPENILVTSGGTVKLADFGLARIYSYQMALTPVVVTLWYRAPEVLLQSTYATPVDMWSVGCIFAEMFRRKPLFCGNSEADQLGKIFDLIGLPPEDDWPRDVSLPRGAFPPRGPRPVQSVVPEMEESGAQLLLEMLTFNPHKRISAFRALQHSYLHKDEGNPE
Sequence of UniProt P07948 (whole entry, looked up): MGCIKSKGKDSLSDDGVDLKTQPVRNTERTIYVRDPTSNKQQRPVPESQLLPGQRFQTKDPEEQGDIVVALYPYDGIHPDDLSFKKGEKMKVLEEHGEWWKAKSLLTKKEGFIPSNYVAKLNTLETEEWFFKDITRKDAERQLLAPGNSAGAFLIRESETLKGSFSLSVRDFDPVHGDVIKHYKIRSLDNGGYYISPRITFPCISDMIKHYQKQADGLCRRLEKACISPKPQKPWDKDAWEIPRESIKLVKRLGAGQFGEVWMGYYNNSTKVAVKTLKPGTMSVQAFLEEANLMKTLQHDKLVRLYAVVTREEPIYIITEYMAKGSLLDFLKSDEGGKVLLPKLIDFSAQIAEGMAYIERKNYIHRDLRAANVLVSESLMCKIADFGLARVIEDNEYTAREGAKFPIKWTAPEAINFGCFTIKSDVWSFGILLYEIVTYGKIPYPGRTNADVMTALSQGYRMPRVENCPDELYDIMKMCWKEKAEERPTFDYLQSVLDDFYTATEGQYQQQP
Sequence of UniProt P30530 (whole entry, looked up): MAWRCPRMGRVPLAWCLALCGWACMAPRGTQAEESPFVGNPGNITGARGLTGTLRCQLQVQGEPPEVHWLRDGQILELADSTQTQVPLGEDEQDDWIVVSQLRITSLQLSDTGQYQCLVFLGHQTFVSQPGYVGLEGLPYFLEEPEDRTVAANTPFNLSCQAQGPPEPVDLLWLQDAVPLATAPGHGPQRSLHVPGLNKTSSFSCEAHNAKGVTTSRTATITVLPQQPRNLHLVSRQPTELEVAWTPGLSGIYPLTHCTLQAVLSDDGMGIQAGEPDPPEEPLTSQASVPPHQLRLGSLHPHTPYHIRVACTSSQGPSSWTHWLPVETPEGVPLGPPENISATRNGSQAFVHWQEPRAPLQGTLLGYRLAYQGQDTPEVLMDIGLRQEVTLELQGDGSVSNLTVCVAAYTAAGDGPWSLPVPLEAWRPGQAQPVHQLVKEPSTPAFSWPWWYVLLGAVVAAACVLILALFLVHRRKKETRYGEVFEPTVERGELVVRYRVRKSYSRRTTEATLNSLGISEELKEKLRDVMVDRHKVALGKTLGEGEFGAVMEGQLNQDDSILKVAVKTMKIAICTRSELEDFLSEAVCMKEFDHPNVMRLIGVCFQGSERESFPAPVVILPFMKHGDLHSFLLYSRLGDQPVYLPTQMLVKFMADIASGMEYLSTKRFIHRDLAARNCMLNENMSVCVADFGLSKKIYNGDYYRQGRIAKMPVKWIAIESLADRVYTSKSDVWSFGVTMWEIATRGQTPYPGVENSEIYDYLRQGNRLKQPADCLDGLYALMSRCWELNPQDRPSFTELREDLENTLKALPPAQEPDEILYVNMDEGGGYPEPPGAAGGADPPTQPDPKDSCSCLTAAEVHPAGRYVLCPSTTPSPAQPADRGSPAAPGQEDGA
Sequence of UniProt P06241 (whole entry, looked up): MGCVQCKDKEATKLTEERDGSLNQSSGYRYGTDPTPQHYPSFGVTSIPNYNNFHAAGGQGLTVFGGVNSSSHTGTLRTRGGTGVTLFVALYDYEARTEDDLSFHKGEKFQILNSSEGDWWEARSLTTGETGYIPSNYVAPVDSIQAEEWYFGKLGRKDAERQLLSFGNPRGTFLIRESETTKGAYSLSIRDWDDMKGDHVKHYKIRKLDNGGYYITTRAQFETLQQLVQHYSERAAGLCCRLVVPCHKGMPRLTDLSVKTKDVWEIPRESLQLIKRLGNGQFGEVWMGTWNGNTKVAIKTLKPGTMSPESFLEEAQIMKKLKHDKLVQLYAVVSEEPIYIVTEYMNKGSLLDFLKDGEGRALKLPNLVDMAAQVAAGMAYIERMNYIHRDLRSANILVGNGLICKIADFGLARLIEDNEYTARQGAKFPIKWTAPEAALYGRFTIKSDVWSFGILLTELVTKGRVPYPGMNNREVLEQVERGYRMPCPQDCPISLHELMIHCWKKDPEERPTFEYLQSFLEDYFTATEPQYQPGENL

Sample 1 — effect on: cell-free assay; technique: competition with immobilised ligand; tested at: 1 µM
SMILES: O=C(NCc1ncc(C(F)(F)F)cc1Cl)c1ccc2c(c1)C1(CCS(=O)(=O)CC1)[C@@H](C1CC1)N2S(=O)(=O)c1ccc(F)cc1
target	remaining binding [%]
LYN (Homo sapiens, UniProt P07948)	100
PIK3CA (Homo sapiens, UniProt P42336, C420R)	77
DCLK1 (Homo sapiens, UniProt O15075)	74
Cyclin-dependent kinase 4, with cyclin D1 (CDK4, Homo sapiens, UniProt P11802)	80
MAP4K4 (Homo sapiens, UniProt O95819)	100
AXL (Homo sapiens, UniProt P30530)	100
TNNI3K (Homo sapiens, UniProt Q59H18)	100
Receptor-type tyrosine-protein kinase FLT3, autoinhibited (FLT3, Homo sapiens, UniProt P36888)	94
CLK1 (Homo sapiens, UniProt P49759)	100
Tyrosine-protein kinase ABL1, phosphorylated (ABL1, Homo sapiens, UniProt P00519)	86
FYN (Homo sapiens, UniProt P06241)	70
CAMK1 (Homo sapiens, UniProt Q14012)	97
TGFBR2 (Homo sapiens, UniProt P37173)	71
DDR1 (Homo sapiens, UniProt Q08345)	100
LTK (Homo sapiens, UniProt P29376)	81

Sample 2 — target: His6 tag; technique: AlphaScreen counter screen; tested at: concentration not given
SMILES	inhibition
Fc1cccc(-c2nnc3ccc(SCc4cccnc4)nn23)c1	-12.2%
CCCCOC(=O)COC(=O)c1cc(=O)[nH]c2ccccc12	8.55%
CCc1cc2c(cc1N1CCC(N3CCOCC3)CC1)C(C)(C)c1[nH]c3cc(C#N)ccc3c1C2=O	4.35%
CCOc1ccc2nc(NC(=O)CCC(=O)O)sc2c1	5.4%
CCCCCCCCCCCCCCCCCCOP(=O)([O-])OC1CC[N+](C)(C)CC1	-9.7%
COc1cc2ncn(-c3cc(OCc4ccccc4S(C)(=O)=O)c(C#N)s3)c2cc1OC	-15.2%
CCOC(=O)C1=C(CSc2ccccc2C(=O)O)NC(=O)NC1	9.4%
CC1CCc2nc(C(C#N)=Cc3ccncc3)sc2C1 (stereo not shown)	5.75%
CCCOc1ccc(-c2csc3nc[nH]c(=O)c23)cc1	7.65%
CCn1c(C(=O)N(C2CC2)C2CC2)cc2c3c(ncn3C)c(Nc3cc(C)n(C)n3)nc21	-10.8%
CCCOc1ccc(NC(=O)Nc2ccc(Cl)c(Cl)c2)cc1	6.4%
COc1ccc(-c2nnc3ccc(SCC(N)=O)nn23)cc1OC	-8.1%
Cn1c(=O)c(C(=O)NNS(=O)(=O)c2ccc(Br)cc2)c(O)c2ccccc21	-4.6%
CC(=C(C#N)c1nc2ccccc2s1)c1ccc(Cl)cc1	9.3%
O=C1NC(=O)C(=Cc2cccc(OCc3ccc(Cl)cc3Cl)c2)S1	12.7%
O=C(Nc1cc(C(F)(F)F)ccc1N1CCCCC1)c1ccncc1	-10.4%
CC(C)n1nc(-c2ccc3oc(N)nc3c2)c2c(N)ncnc21	1.05%
O=C(NNC(=O)c1c(O)c2ccccc2[nH]c1=O)c1cccc(Cl)c1	-1.2%
COc1cc2nccc(Oc3ccc(NC(=O)NC4CC4)c(Cl)c3)c2cc1C(N)=O	0.15%

Sample 3 — effect on: RNA clamping; technique: fluorescence polarization; tested at: concentration not given; setting: mean of two replicates; together with: FAM-labelled poly r(AG)8 RNA
Target: Eukaryotic initiation factor 4A-III (Homo sapiens, UniProt P38919)
Sequence of UniProt P38919 (whole entry, looked up): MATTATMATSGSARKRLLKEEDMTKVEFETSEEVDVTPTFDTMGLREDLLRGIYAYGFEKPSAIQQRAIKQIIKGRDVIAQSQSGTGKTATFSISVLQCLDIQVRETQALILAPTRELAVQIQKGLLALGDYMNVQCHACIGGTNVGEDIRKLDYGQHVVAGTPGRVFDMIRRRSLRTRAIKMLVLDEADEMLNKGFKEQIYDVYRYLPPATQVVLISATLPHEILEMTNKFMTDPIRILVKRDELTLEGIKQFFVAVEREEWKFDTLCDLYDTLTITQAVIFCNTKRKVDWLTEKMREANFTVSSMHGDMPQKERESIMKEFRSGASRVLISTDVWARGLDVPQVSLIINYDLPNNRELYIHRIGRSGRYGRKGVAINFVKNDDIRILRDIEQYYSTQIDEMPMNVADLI
Compound	fluorescence polarization change
COc1ccc([C@@]23Oc4cc(O)cc(OC)c4[C@]2(O)[C@H](O)[C@H](C(=O)c2ccco2)[C@H]3c2ccccc2)cc1	9.9 mP
CCOC(=O)COc1nc(-c2ccccc2)nc2c1[C@@H](c1ccccc1)[C@]1(c3ccc(OC)cc3)Oc3cc(OC)cc(OC)c3[C@]21OCC(=O)OCC	3 mP
COC(=O)CCCn1c(-c2ccccc2)nc2c(c1=O)[C@H](c1ccccc1)[C@]1(c3ccc(OC)cc3)Oc3cc(OC)cc(OC)c3[C@]21O	4.5 mP
COc1ccc([C@@]23Oc4cc(OC)cc(OC)c4[C@]2(O)[C@H](O)[C@H](C(=O)c2ccco2)[C@H]3c2cccc(OC)c2)cc1	16 mP
COC(=O)[C@H]1C(=O)[C@@]2(Nc3ccccc3)c3c(OC)cc(OC)cc3O[C@@]2(c2ccc(OC)cc2)[C@@H]1c1ccccc1	0.9 mP
O[C@@H]1C2(O)c3ccccc3O[C@]1(c1ccccc1)[C@@H](/C=C/c1ccccc1)[C@@H]2c1ccccc1	9.2 mP
COC(=O)[C@H]1C(=O)[C@@]2(NCc3cccnc3)c3c(OC)cc(OC)cc3O[C@@]2(c2ccc(OC)cc2)[C@@H]1c1ccccc1	1.7 mP
COC(=O)/C=C/Oc1nc(-c2ccccc2)nc2c1[C@@H](c1ccccc1)[C@]1(c3ccc(OC)cc3)Oc3cc(OC)cc(OC)c3[C@]21O	1.7 mP
COc1ccc([C@]23[C@@H](c4ccccc4)C[C@@H](O)[C@@]2(O)c2c(F)cccc2N3C)cc1	5.6 mP
COC(=O)[C@@H]1[C@@H](c2ccccc2)[C@]2(c3ccc(OC)cc3)Oc3cc(OC)cc(OC)c3[C@@]23NC(c2csc(C)n2)=N[C@@]13O	23.6 mP
COC(=O)[C@@H]1[C@@H](c2ccccc2)[C@]2(c3ccc(OC)cc3)Oc3cc(OC)cc(OC)c3[C@@]23OC(c2ccc(OCc4ccccc4)cc2)=N[C@@]13O	3 mP
COc1ccc([C@]23Oc4cc(OC)cc(OC)c4[C@](O)([C@H]2O)[C@@H](C(=O)N(C)OC)[C@@H]3c2ccccc2)cc1	-0.6 mP
COC(=O)[C@H]1C(=O)[C@@]2(NCC3CCNCC3)c3c(OC)cc(OC)cc3O[C@@]2(c2ccc(OC)cc2)[C@@H]1c1ccccc1	5.6 mP
CONC(=O)[C@H]1[C@@H](O)[C@@]2(O)c3c(OC)cc(O)cc3O[C@@]2(c2ccc(Br)cc2)[C@@H]1c1ccccc1	54.7 mP

Sample 4 — effect on: enzyme activity; action: inhibitor; tested at: 0.5 µM; relative to: control
Target: Serine/threonine-protein kinase pim-3 (PIM3, Homo sapiens, UniProt Q86V86)
Structure (SMILES)	remaining activity [%]
COc1cc2ncnc(N3CCN(C(=O)Nc4ccc(Oc5ccccc5)cc4)CC3)c2cc1OC	94.4
Cc1ccc(NC(=O)c2ccc(CN3CCN(C)CC3)cc2)cc1Nc1nccc(-c2cccnc2)n1	95.7
O=C1NC(=O)/C(=C/c2ccc3nccnc3c2)S1	67.3
CN(C)CCCn1cc(C2=C(c3c[nH]c4ccccc34)C(=O)NC2=O)c2ccccc21	1.9
O=c1cc(N2CCOCC2)oc2c1ccc1ccccc12	95.4
COc1cc2ncnc(Nc3ccc(OCc4ccccc4)cc3)c2cc1OC	119
CS(=O)(=O)CCNCc1ccc(-c2ccc3ncnc(Nc4ccc(OCc5cccc(F)c5)c(Cl)c4)c3c2)o1	93.7
Nc1[nH]nc2nnc(-c3c(-c4ccccc4)nn4ccccc34)cc12	100
CC(C)[C@H](CO)Nc1nc(Nc2cccc(Cl)c2)c2ncn(C(C)C)c2n1	84.9
COc1cc2ncc(-c3ccccc3)nc2cc1OC	87.4
COc1ccc(Cl)cc1NC(=O)Nc1cc(C)nc2ccccc12	97.6
Cn1cc(/C=C2\C(=O)Nc3ccc(S(N)(=O)=O)cc32)c2ccccc21	91.6
CC(C)c1nn(-c2c(Cl)cccc2Cl)c2nc(Cc3ccc(OCCO)cc3)[nH]c(=O)c12	105
CCOc1cc2ncnc(Nc3cccc(Br)c3)c2cc1OCC	105
Cc1nc(Nc2ncc(C(=O)Nc3c(C)cccc3Cl)s2)cc(N2CCN(CCO)CC2)n1	96.3
CCN1/C(=C/C(C)=O)Sc2ccc(OC)cc21	47.4
Cn1cnc2cc3c(Nc4cccc(Br)c4)ncnc3cc21	104
C[S+]([O-])c1ccc(-c2nc(-c3ccncc3)c(-c3ccc(F)cc3)[nH]2)cc1 (stereo not shown)	98.1
CCC(=O)Nc1ccc2ncnc(Nc3cccc(Br)c3)c2c1	76.6
CC(=O)O/N=C1/C(c2c(O)[nH]c3cc(Br)ccc23)=Nc2ccccc21	54.2
COc1ccc(-c2cnc3c(-c4ccsc4)cnn3c2)cc1	100
O=C(Nc1ccc(Cl)cc1)c1ccccc1NCc1ccncc1	93

Excerpt of the above (sample 2):
SMILES	inhibition
CCOC(=O)C1=C(CSc2ccccc2C(=O)O)NC(=O)NC1	9.4%
CCc1cc2c(cc1N1CCC(N3CCOCC3)CC1)C(C)(C)c1[nH]c3cc(C#N)ccc3c1C2=O	4.35%
COc1ccc(-c2nnc3ccc(SCC(N)=O)nn23)cc1OC	-8.1%
CCCOc1ccc(NC(=O)Nc2ccc(Cl)c(Cl)c2)cc1	6.4%
CCCCOC(=O)COC(=O)c1cc(=O)[nH]c2ccccc12	8.55%
CCOc1ccc2nc(NC(=O)CCC(=O)O)sc2c1	5.4%
CC(C)n1nc(-c2ccc3oc(N)nc3c2)c2c(N)ncnc21	1.05%
Cn1c(=O)c(C(=O)NNS(=O)(=O)c2ccc(Br)cc2)c(O)c2ccccc21	-4.6%
